{"data": "Measurements pooled from the literature", "note": "A part holds a random share of what one study measured.", "UniProt Q2M2I8, sequence (whole entry, looked up)": "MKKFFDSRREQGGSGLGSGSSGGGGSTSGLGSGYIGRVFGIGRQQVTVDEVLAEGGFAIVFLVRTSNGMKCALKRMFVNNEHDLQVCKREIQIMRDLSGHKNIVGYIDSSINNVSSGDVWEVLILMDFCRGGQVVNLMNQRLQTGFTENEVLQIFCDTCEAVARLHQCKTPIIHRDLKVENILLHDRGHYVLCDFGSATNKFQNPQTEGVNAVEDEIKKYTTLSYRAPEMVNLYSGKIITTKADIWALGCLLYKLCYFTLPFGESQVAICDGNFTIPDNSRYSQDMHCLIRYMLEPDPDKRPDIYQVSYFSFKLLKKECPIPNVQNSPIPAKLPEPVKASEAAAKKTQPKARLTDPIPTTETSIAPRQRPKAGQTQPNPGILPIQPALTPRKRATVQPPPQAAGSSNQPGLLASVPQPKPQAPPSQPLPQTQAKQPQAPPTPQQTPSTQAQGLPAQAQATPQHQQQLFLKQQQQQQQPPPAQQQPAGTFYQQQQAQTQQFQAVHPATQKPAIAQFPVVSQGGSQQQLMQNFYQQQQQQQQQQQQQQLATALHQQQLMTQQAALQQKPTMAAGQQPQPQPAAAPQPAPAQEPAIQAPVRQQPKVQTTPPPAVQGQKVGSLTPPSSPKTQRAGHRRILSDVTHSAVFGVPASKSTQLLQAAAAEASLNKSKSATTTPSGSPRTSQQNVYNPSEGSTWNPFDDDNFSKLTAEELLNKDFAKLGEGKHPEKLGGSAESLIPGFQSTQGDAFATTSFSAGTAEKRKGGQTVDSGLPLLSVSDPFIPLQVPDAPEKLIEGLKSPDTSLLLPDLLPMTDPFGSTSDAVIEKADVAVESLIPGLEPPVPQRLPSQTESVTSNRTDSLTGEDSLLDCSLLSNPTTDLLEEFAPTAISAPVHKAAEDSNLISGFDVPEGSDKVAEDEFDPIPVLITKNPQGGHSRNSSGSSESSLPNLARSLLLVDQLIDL"}
{"data": "Block 1", "target": "Serine/threonine-protein kinase Chk1 (CHEK1, Homo sapiens, UniProt O14757)", "read-out": "enzyme activity", "mode": "inhibitor", "tested at": "0.5 µM", "relative to": "control", "Construct (O14757 1-476)": "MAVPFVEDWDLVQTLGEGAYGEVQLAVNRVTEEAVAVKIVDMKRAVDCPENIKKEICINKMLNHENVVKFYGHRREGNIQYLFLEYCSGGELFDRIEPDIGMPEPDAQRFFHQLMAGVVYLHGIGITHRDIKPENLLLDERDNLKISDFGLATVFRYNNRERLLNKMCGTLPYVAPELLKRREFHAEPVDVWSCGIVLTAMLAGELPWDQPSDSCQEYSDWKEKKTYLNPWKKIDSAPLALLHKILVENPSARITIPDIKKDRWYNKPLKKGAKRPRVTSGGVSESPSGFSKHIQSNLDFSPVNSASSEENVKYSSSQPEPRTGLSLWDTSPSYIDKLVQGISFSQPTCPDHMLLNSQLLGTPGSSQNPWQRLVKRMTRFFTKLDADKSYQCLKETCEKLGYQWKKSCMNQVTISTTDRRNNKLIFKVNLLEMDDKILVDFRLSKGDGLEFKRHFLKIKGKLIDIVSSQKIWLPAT"}
{"SMILES": "O=C(Nc1cccc(Nc2cc(Nc3cccc(C(F)(F)F)c3)ncn2)c1)C1CC1", "remaining activity [%]": 105}
{"SMILES": "Cc1ccc(Nc2nccc(N(C)c3ccc4c(C)n(C)nc4c3)n2)cc1S(N)(=O)=O", "remaining activity [%]": 110}
{"SMILES": "COc1ccc(OC)c2c(=S)c3ccccc3[nH]c12", "remaining activity [%]": 92.7}
{"SMILES": "Cc1nc(-c2ccccc2)c(-c2ccncc2)o1", "remaining activity [%]": 106}
{"SMILES": "O=C1NC(=O)C(c2cn(CCCO)c3ncccc23)=C1c1cnccn1", "remaining activity [%]": 141}
{"SMILES": "O=c1c2ccccc2[nH]c(=S)n1CCN1CCC(=C(c2ccc(F)cc2)c2ccc(F)cc2)CC1", "remaining activity [%]": 108}
{"SMILES": "Cc1cccc(-c2[nH]c(C(C)(C)C)nc2-c2ccc3c(c2)OCO3)n1", "remaining activity [%]": 89.8}
{"SMILES": "N#CC(C#N)=C(N)/C(C#N)=C/c1ccc(O)cc1", "remaining activity [%]": 98.3}
{"SMILES": "COc1cc2nccc(Oc3ccc(NC(=S)NC(=O)c4ccccc4C)cc3)c2cc1OC", "remaining activity [%]": 95.1}
{"SMILES": "CNC(=O)c1cc(Oc2ccc(NC(=O)Nc3ccc(Cl)c(C(F)(F)F)c3)cc2)ccn1", "remaining activity [%]": 173}
{"SMILES": "CO[C@H]1C[C@@H]2CC[C@@H](C)[C@@](O)(O2)C(=O)C(=O)N2CCCC[C@H]2C(=O)O[C@H]([C@H](C)C[C@@H]2CC[C@@H](O)[C@H](OC)C2)CC(=O)[C@H](C)/C=C(\\C)[C@@H](O)[C@@H](OC)C(=O)[C@H](C)C[C@H](C)/C=C/C=C/C=C/1C", "remaining activity [%]": 107}
{"SMILES": "O=C(CCCc1ccc(-c2ccccc2F)cc1)Nc1ccc(O)cc1", "remaining activity [%]": 98.8}
{"SMILES": "O=C(O)c1ccc2c3c1cccc3c(=O)n1c3ccccc3nc21", "remaining activity [%]": 101}
{"data": "Block 2", "target": "Prothrombin, mature alpha-thrombin (F2, Homo sapiens, UniProt P00734)", "method": "aptamer microarray, sandwich", "molecule type": "DNA with 2'F-ANA", "medium": "in vitro", "tested at": "200 nM", "notes": "whole 15-mer aptamer, many near background", "with": "Cy3 exosite-II aptamer, 400 nM", "direction": "higher = stronger binding", "oligonucleotide": "GGTTGGTGTGGTTGG"}
{"Modification": "2'F-ANA at 2 5 6 7 9 11 13", "mean fluorescence intensity [a.u.]": 60}
{"Modification": "2'F-ANA at 1 3 5 6 7 8 9 14 15", "mean fluorescence intensity [a.u.]": 55.5}
{"Modification": "2'F-ANA at 6 7 8 11 12 13", "mean fluorescence intensity [a.u.]": 660}
{"Modification": "2'F-ANA at 6 7 10 12 15", "mean fluorescence intensity [a.u.]": 215}
{"Modification": "2'F-ANA at 1 2 4 5 6 8 9 13 14", "mean fluorescence intensity [a.u.]": 56.8}
{"Modification": "2'F-ANA at 1 4 5 6 9 10", "mean fluorescence intensity [a.u.]": 49.6}
{"Modification": "2'F-ANA at 3 6 7 9 11", "mean fluorescence intensity [a.u.]": 801}
{"Modification": "2'F-ANA at 3 4 11 12 13 14 15", "mean fluorescence intensity [a.u.]": 371}
{"data": "Block 3", "target": "Runt-related transcription factor 1, full length (RUNX1, Homo sapiens, UniProt Q01196-8, residues 1-480)", "method": "protein-binding microarray", "molecule type": "hairpin DNA", "medium": "in vitro", "tested at": "not given", "notes": "whole hairpin DNA, median over replicate spots", "relative to": "not given", "direction": "higher = stronger binding"}
{"Oligonucleotide": "CTCAGTTCGGTGGGCTGGACTCCTGTCCAGCCCACCGAACTGAGACACTC", "median fluorescence": "1960 a.u."}
{"Oligonucleotide": "GAGGCCTGTTGTGCGTGGCCTCCTGGCCACGCACAACAGGCCTCACACTC (5mC at 14)", "median fluorescence": "1800 a.u."}
{"Oligonucleotide": "GAGGCCCAACCACAACAGCCTCCTGGCTGTTGTGGTTGGGCCTCACACTC", "median fluorescence": "2990 a.u."}
{"Oligonucleotide": "GAGGCCTGTTGCGGTTGGCCTCCTGGCCAACCGCAACAGGCCTCACACTC", "median fluorescence": "5920 a.u."}
{"Oligonucleotide": "CTCAGTTCTGTGGTCTGGACTCCTGTCCAGACCACAGAACTGAGACACTC", "median fluorescence": "2590 a.u."}
{"Oligonucleotide": "GAGGCCTGTTCGGGTTGGCCTCCTGGCCAACCCGAACAGGCCTCACACTC (5mC at 33)", "median fluorescence": "1720 a.u."}
{"Oligonucleotide": "CTCAGTACTGTGGGCTGGACTCCTGTCCAGCCCACAGTACTGAGACACTC", "median fluorescence": "1810 a.u."}
{"Oligonucleotide": "GAGGCCCAACCGTAACAGCCTCCTGGCTGTTACGGTTGGGCCTCACACTC", "median fluorescence": "1810 a.u."}
{"data": "Other studies, line by line"}
{"Compound": "O=C(Nc1cccnn1)N1CC(CC=Cc2cncc(Oc3ccc(C(F)(F)F)cn3)n2)C1", "target": "AP2-associated protein kinase 1 (AAK1, Homo sapiens, UniProt Q2M2I8)", "test": "KINOMEscan", "setting": "1 µM", "scale": "relative to: control", "quantity": "remaining binding", "result": "100%"}
{"note": "Excerpt of the above (block 1):"}
{"SMILES": "O=C1NC(=O)C(c2cn(CCCO)c3ncccc23)=C1c1cnccn1", "remaining activity [%]": 141}
{"SMILES": "Cc1nc(-c2ccccc2)c(-c2ccncc2)o1", "remaining activity [%]": 106}
{"SMILES": "Cc1ccc(Nc2nccc(N(C)c3ccc4c(C)n(C)nc4c3)n2)cc1S(N)(=O)=O", "remaining activity [%]": 110}
